Assay results collected from several papers.
Protocols differ between the studies behind these lines. Numbers after ± are the reported error.

| SMILES | target or system | test | system | setting | how to read | measurement | result |
| --- | --- | --- | --- | --- | --- | --- | --- |
| C[n+]1ccc(/C=N/NC(=O)c2cncc(C(=O)N/N=C/c3cc[n+](C)cc3)n2)cc1 | myc22 MYC G4-DNA parallel | FRET melting | – | 1 µM, K1 buffer, DNA 0.2 µM, added: ds26 10 µM | – | ΔTm | 3.4 ± 0.5 °C |
| COC1CN([C@H]2CC[C@H]([C@@]3(C)Oc4c(Cl)cc(C(=O)NCc5c(SC)cc(C)[nH]c5=O)c(C)c4O3)CC2)C1 | – | RNA-seq, item: PPP1R9A mouse homolog | mouse, HT-1376 xenograft, whole blood | dose not given | relative to: vehicle | log2 fold change | 1.19 |
| O=C(N/N=C/c1cc[n+](CC2CC2)c2ccccc12)C(=O)N/N=C/c1cc[n+](CC2CC2)c2ccccc12 | myc22 MYC G4-DNA parallel | FRET melting | – | 1 µM, K1 buffer, DNA 0.2 µM, added: ds26 10 µM | – | ΔTm | 2.1 ± 1.7 °C |
| C=C(NC(=O)c1csc(-c2nc3c(cc2O)-c2nc(cs2)C(=O)NC(C(C)O)C(=O)NC(=C(C)OC)c2nc(cs2)C(=O)NC2c4nc(cs4)C(=O)NC(COC(=O)c4c5c6c(cccc6n4O)COC(=O)C(OC4CC(C)(O)C(N(C)C)C(C)O4)C2OC5)c2nc-3cs2)n1)C(N)=O (stereo not drawn) | Streptococcus pneumoniae | – | -25, immunocompromised mice, lung | 16 mg/kg/day once daily, 24 h post-dose | – | lung bacterial load | 4.03 log10 CFU/lung |
| O=C(N/N=C/c1ccc(C[n+]2ccccc2)cc1)c1ccc2ccc(C(=O)N/N=C/c3ccc(C[n+]4ccccc4)cc3)nc2n1 | myc22 MYC G4-DNA parallel | FRET melting | – | 1 µM, K1 buffer, DNA 0.2 µM, added: ds26 10 µM | – | ΔTm | 11.4 ± 0.2 °C |
| CN1CCCNC(=O)c2cccc(c2)C(=O)NCCCN(C)CCCNc2cccc3c2C(=O)c2cccc(c2C3=O)NCCC1 | SAS | RNA-Seq, item: SRSF5 mRNA | – | 1 µM, 6 h | relative to: untreated cells | log2 fold change | -0.844 |
| C=CC(=O)N1[C@@H](c2ccc3c(c2)OCO3)c2[nH]c3ccccc3c2C[C@H]1C(=O)N1CCN(C)CC1 | human cyclin E1 N112C-3xFLAG:CDK2 | co-IP with TMT proteomics, item: SRSF3 | – | concentration not given, P84103 | relative to: wild type DMSO | relative co-enrichment | 140% |
| CC[n+]1cccc2cc(/C=N/NC(=O)c3cccc(C(=O)N/N=C/c4ccc5c(ccc[n+]5CC)c4)c3)ccc21 | myc22 MYC G4-DNA parallel | FRET melting | – | 1 µM, K1 buffer, DNA 0.2 µM | – | ΔTm | 6.4 ± 0.3 °C |
| C=CC(=O)Nc1cccc(Cn2ncc3cnc(Nc4cnn(CCOC)c4)nc32)c1 | EPHA4 human | binding, KINOMEscan | – | 100 nM | lower = stronger binding | percent of control | 100% |
| CC(C)(O)c1ccn2c(-c3ccc(F)c(-c4ccc(F)cc4C#N)c3)cnc2c1F | GABAA receptor α1 G251D human | proximity ligation, item: BiP, calnexin, LMAN1 | hiPSC-derived GABAergic neurons α1 G251D | 5 µM, 24 h, added: hispidulin 10 µM | – | protein interaction | increased |
| CNS(=O)(=O)Nc1nccc(Cc2c(C)c3ccc(Oc4ncccc4F)cc3oc2=O)c1F | WSUDLCL2 | cell viability | – | 7 days | – | IC50 | > 1 µM |
| C[n+]1cc(/C=N/NC(=O)c2cc(C(=O)N/N=C/c3cc4ccccc4[n+](C)c3)ncn2)cc2ccccc21 | myc22 MYC G4-DNA parallel | FRET melting | – | 1 µM, K1 buffer, DNA 0.2 µM, added: ds26 10 µM | – | ΔTm | 4.3 ± 0.3 °C |
| Cc1ncsc1-c1ccc(C(C)NC(=O)C2CC(O)CN2C(=O)C(NC(=O)CCCCCCCCCCN2CCCC(Nc3ncc(Cl)c(Nc4ccccc4S(=O)(=O)C(C)C)n3)C2)C(C)(C)C)cc1 (stereo not drawn) | 22Rv1 | RNA-seq, item: ZNF181 mRNA | – | concentration not given | relative to: DMSO | log2 fold change | -1.12 |
| NCCOCCO.O=C(O)C(Cl)Cl | Amaranthus retroflexus | herbicidal activity | – | 15 mg/mL, 21 days, pre-emergence greenhouse | – | inhibition | 0% |
| COc1cc(O)ccc1CCC(c1ccc(O)cc1)c1cc2c(c(C)c1O)OC(c1ccc(O)cc1)CC2 (mixture of isomers) | – | item: PGF2α | human whole blood | 30 µM, added: Escherichia coli | – | amount | 739 ± 363 pg/mL blood |
| c1ccc(-c2n[nH]cc2-c2ccnc3ccccc23)nc1 | orf19.4575 Candida albicans | kinase binding, MIB/MS competition | Candida albicans lysate | 10 µM | relative to: DMSO | log2 fold change | -0.26 |
| O=C(N/N=C/c1ccc2c(ccc[n+]2Cc2ccccc2)c1)c1cncc(C(=O)N/N=C/c2ccc3c(ccc[n+]3Cc3ccccc3)c2)n1 | myc22 MYC G4-DNA parallel | FRET melting | – | 1 µM, K1 buffer, DNA 0.2 µM, added: ds26 10 µM | – | ΔTm | 18.9 ± 0.3 °C |
| CCN(CC)CC(=O)Nc1cccc(-n2cc(-c3ccc4ccc(-c5cn(-c6cccc(NC(=O)CN(CC)CC)c6)nn5)cc4c3)nn2)c1 | RCC4 | PCR angiogenesis array, item: MDK | – | 5 x IC50, 2 h, normoxia | relative to: untreated | fold regulation | 1.24 |
| C[n+]1ccc(/C=N/NC(=O)N/N=C/c2cc[n+](C)c3ccccc23)c2ccccc21 | myc22 MYC G4-DNA parallel | FRET melting | – | 1 µM, K1 buffer, DNA 0.2 µM, added: ds26 10 µM | – | ΔTm | 4.3 ± 0.4 °C |
| CCN(C(=O)c1cc(F)ccc1Oc1nncnc1N1CCC2(C1)CN([C@H](CCCN(C)CCOC)C(C)C)C2)C(C)C | NCI-H358M | cell growth or viability | – | 72 h | – | GI50 | > 10 µM |
| Nc1ncc(-c2cc(-c3cnn(CC(F)(F)F)c3)ncc2F)nc1C(=O)NC1CNCC(F)C1 (stereo not drawn) | PDGFRA | KINOMEscan | – | 1 µM | relative to: DMSO control | remaining binding | 36% |

A few entries again:
| SMILES | target or system | test | system | setting | how to read | measurement | result |
| --- | --- | --- | --- | --- | --- | --- | --- |
| C[n+]1ccc(/C=N/NC(=O)N/N=C/c2cc[n+](C)c3ccccc23)c2ccccc21 | myc22 MYC G4-DNA parallel | FRET melting | – | 1 µM, K1 buffer, DNA 0.2 µM, added: ds26 10 µM | – | ΔTm | 4.3 ± 0.4 °C |
| CC(C)(O)c1ccn2c(-c3ccc(F)c(-c4ccc(F)cc4C#N)c3)cnc2c1F | GABAA receptor α1 G251D human | proximity ligation, item: BiP, calnexin, LMAN1 | hiPSC-derived GABAergic neurons α1 G251D | 5 µM, 24 h, added: hispidulin 10 µM | – | protein interaction | increased |
